Measurements collected from several papers.
Each numbered part is a random draw from the data of one study; scales do not carry over between parts. Positions count from the first letter of the parent shown.

Sample 1 — method: RNA Bind-n-Seq; molecule type: RNA; medium: in vitro; concentration: 365 nM; reference: no-protein control; direction: higher = stronger binding
Target: RNA binding protein fox-1 homolog 2, RRM domain, GST-SBP tag (RBFOX2, Homo sapiens, UniProt O43251-10, residues 100-194)
Setting: natural RNA segment, single round, ends assumed
Construct (chain): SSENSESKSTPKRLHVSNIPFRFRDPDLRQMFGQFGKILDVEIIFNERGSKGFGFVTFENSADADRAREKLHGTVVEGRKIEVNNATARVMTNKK
| Oligonucleotide | RBNS enrichment (R) |
| --- | --- |
| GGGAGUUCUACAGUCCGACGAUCUGUGGGUGAUGUAAACUUCAAAUUGGGAGAUGUUCCGACCCCCACUCCCAUAUAAGCAUUCAAUCAGUGUAACUUGCAAAAUGCAUAAACAUCCGACAGUUUGAAUUUAUUGGAAUUCUCGGGUGCCAA | 0.621 |
| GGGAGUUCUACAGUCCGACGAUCUAAGUGCUAAACAGAAUACUGCUAUUUUGAGAGAGUCAAGACUCUUUCUUAAGGGCCAAGAAAGCAACUUGAGCCUUGGGCUAAUCUGGCUGAGUAGUCAGUUAUAAAAGUGGAAUUCUCGGGUGCCAA | 0.236 |
| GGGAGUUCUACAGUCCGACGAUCCUUGAAAAUUAAAUAUUGAUUUGUUUCACUAUUGAUGGGAAGAAGGGGAAUAAAGACUUGCAUAGGUUGUGUAGGUCAUUCCUCCGAAACAUAACAGGCUUCUCUUAGCUUGGAAUUCUCGGGUGCCAA | 0.212 |
| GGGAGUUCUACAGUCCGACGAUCUAUGGUAUCUGUGCUUUUGGCUGGGUAAAAGUACAGCCAGAGACGGCUUACUGGGUUUAGAAUGGAAACAACAUUCACUACUGUUCAGUGCAUGCUGGUACAAUCUCUUAUGGAAUUCUCGGGUGCCAA | 0.573 |
| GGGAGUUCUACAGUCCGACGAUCCGCCCACCCUCUGCCUGGUCGCGCUCUUCAGUCCCACGAGGAGCUGACACGUCCUCUCUGGCCGCCAUCCGGCUCGCACAGGGGCCUCCCAGCGCCUCAGGCCCCGCGUUUGGAAUUCUCGGGUGCCAA | 0.645 |
| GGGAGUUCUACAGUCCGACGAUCAAGGAUAUUUAUAAUUAAAACAGCCUGUCAUGAGGCAACUGUGAGUGGAACAUCUGGGAAUUUGAGAAGUAUCUGCAAAGUAUAGAAAAAUCAACAGAUUUGUGGACCCUUGGAAUUCUCGGGUGCCAA | 0.51 |
| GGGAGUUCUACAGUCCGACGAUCCCAAGGCCUGACCUAGGCUGCUAUCCUAAUAUUGCAGGAGGGGCCUCUCUUCCAAGCCCCACCCUAAGGGUUAGCCCUUGGCCAAAUCUUUUGCCGUCUAGGCCCAGCCAUGGAAUUCUCGGGUGCCAA | 0.268 |
| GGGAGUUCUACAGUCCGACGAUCUUGCAAGGCUGUACAAUGUGUGCUGAUGCAAGCCUUUUUCAGUUCAAGAGAAUAAAUGUUUACAAAUAUAGGCUCACUUUGUCUUUUUUUUAAUUAAAAACACCUUUUAAUGGAAUUCUCGGGUGCCAA | 0.672 |
| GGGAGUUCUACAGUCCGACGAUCACAUAAGUGAAAGAAGUCUCAGUUCAGUGAACACAAAACUUAUUUAAAGAUGCUUUAUAUGUAGAAAUUGUUUCAAAUCAUACUCUAACCCUUAGUGAGGGCAAAGUGUAUGGAAUUCUCGGGUGCCAA | 0.837 |
| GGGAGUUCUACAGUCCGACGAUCUUAUGGGUUAUAUGCCUAAACCCUUAUGCCACAUAGUGGUAAAUAAUUAUGAAAAAUGGUCUGUUCAUAAUUGGUAGGUGCCUUUUGUGAGCAGGGAGCAUAAUUAUUGGUGGAAUUCUCGGGUGCCAA | 0.365 |
| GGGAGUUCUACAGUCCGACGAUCCCCAGCCCCCCUUCCCAUUUGUUUCUCCUUCUCUAAUCCCAGGGACUAUGGUAGAGACUUGCUGCUCCUAACUCCCCAGUUACCCACCCUCCUCUGCCCUUUCUCGGGAUUGGAAUUCUCGGGUGCCAA | 0.757 |
| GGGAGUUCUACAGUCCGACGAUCCUUUGCAGGAGAACUUGGAAGCAGAGUUCACCAGUGAGCUCAGGUGUCUCAAAGAAGGGUGGAAGUUCUCAUGUCUGUUAGCUAUUCAUAAGAAUGCUGUUUGCUGCAGUUGGAAUUCUCGGGUGCCAA | 15.1 |

Sample 2 — method: aptamer microarray, sandwich; molecule type: DNA with 2'F-ANA; medium: in vitro; concentration: 200 nM; added: Cy3 exosite-II aptamer, 400 nM; direction: higher = stronger binding; oligonucleotide: GGTTGGTGTGGTTGG
Target: Prothrombin, mature alpha-thrombin (F2, Homo sapiens, UniProt P00734)
Setting: whole 15-mer aptamer, many near background
| Modification | mean fluorescence intensity [a.u.] |
| --- | --- |
| 2'F-ANA at 1 2 3 4 10 13 14 | 50.3 |
| 2'F-ANA at 2 7 8 13 14 15 | 165 |
| 2'F-ANA at 1 4 5 6 7 10 15 | 47.9 |
| 2'F-ANA at 3 9 12 13 15 | 1080 |
| 2'F-ANA at 1 2 5 6 10 11 14 15 | 140 |
| 2'F-ANA at 4 6 8 15 | 338 |
| 2'F-ANA at 1 2 3 6 7 8 9 10 11 14 | 54.9 |
| 2'F-ANA at 2 6 9 10 13 | 98.9 |
| 2'F-ANA at 1 2 5 7 8 9 12 | 129 |
| 2'F-ANA at 1 3 4 8 9 12 13 | 298 |
| 2'F-ANA at 1 2 5 7 8 9 12 14 15 | 50.1 |
| 2'F-ANA at 5 6 8 9 10 11 13 14 | 57.6 |
| 2'F-ANA at 1 6 15 | 209 |
| 2'F-ANA at 1 2 3 4 5 7 9 11 | 62.6 |
| 2'F-ANA at 2 3 4 5 6 7 10 13 14 | 68.7 |
| 2'F-ANA at 1 4 5 6 8 9 10 11 13 | 48.7 |
| 2'F-ANA at 2 5 10 13 14 15 | 84.2 |
| 2'F-ANA at 1 8 10 13 14 | 45.5 |
| 2'F-ANA at 1 2 3 4 8 10 11 12 14 15 | 50 |

Sample 3 — method: RNA Bind-n-Seq; molecule type: RNA; medium: in vitro; concentration: 1 µM; setting: whole 134-nt RNA, ends assumed; added: 150 mM KCl; reference: input library; direction: higher = stronger binding
Target: Ras GTPase-activating protein-binding protein 1, RRM domain (G3BP1, Homo sapiens, UniProt Q13283)
Chain of UniProt Q13283 (whole entry, looked up): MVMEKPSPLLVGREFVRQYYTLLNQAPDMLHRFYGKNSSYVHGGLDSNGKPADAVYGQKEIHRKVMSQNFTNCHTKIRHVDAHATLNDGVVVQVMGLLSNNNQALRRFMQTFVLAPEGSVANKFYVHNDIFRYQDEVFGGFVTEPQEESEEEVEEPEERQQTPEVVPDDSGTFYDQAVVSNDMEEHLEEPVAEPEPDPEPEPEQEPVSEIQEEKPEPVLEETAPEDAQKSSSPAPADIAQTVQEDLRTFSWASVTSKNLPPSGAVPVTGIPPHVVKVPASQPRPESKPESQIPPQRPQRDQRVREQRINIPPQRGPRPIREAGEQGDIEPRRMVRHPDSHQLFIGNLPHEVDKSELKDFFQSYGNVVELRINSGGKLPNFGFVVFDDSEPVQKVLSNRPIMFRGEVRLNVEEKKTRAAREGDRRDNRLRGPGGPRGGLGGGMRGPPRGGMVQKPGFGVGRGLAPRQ
| Oligonucleotide | log2 enrichment |
| --- | --- |
| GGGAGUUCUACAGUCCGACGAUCAAGUCCUGUGCUACACAUCGUAUGUACCGAAUCGGGGCCCGGGGCCCGGGGCCCGGAAAGUAUUAUGUUACGCCGUUCGGAUCUGCACUUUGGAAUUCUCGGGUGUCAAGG | -1.63 |
| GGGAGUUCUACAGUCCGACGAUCAGUCCUGUGCUACACAUCGUAUGUACCGAAUCGGAAAAAGGGAAAAAGGGAAAAAGGAAAGUAUUAUGUUACGCCGUUCGGAUCUGCACUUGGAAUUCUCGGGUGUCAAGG | -0.00147 |
| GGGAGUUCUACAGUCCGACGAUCUCAAGUCCUGUGCUACACAUCGUAUGUACCGAAUCGGUUUGGUUUGGAAAAAGGAAAGUAUUAUGUUACGCCGUUCGGAUCUGCACUUCCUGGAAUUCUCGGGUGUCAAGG | -0.161 |
| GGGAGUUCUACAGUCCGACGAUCUGAAGGCGCGGCCCUUCCCCGACGGCCUGGCCGAGGACAUCGAUAAAGGCGAGGUGUCCGCCCGUCAGGAGCUCAAGCAGCGGGCGCGCUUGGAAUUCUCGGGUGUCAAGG | -0.599 |
| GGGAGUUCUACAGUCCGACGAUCGCAGGAAGUAAAAACAAAUGGAAAUGCUUCGGAUAGUGGCAGUGGUGGGGGUUGCUAAGGAAAGGGUGGGAUGGGAGUGGGUAAAGAGUUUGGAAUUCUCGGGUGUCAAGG | 1.15 |
| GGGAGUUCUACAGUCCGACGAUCUAUUAAUUUGAUAUAUUUAUUAUGAUUUGUAGAGGACGUCGGUGAUGAAGGAGAAGAAGAAAAAGAAUUCAUUUCCUAUAACAUCAACAUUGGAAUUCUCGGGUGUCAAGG | -0.3 |
| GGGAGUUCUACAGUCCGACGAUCAUUUUUUGUAUCAAGUCCCUGAAUGGAAGUAUGACGUUGGGUCCCUCUGAAGUUUAAUUCUGAGUUCUCAUUAAAAGAAAUUUGCUUUCAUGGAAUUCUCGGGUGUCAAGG | -0.479 |
| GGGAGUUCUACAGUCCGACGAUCUGGGAGGUGGAUCUUGUUUAUUUUUUUAGCUCAUUUCCAGGGGUGGGAAUUUUUUUUUAAUAUGUGUCAUGAAUAAAGUUGUUUUUGAAAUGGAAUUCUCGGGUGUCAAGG | 1.63 |
| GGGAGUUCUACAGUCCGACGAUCAAGUCCUGUGCUACACAUCGUAUGUACCGAAUCAAACCCAAACCCCCAAAUUUAAAAAAGUAUUAUGUUACGCCGUUCGGAUCUGCACUUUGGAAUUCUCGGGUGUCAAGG | -0.0531 |
| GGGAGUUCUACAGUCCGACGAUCCACGGACAACACGCACCCACACAGACACAGAGGGAAGGGGUUGGGAUGGGGACAGGGUGCACAGCAGGGCGGGGUAGGACCCCAGCCCCUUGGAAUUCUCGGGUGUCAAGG | -0.0565 |
| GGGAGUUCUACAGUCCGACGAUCGUCCUGUGCUACACAUCGUAUGUACCGAAUCGGGAAAAAGGGGAAAAAGGAAAAAGGGAAAGUAUUAUGUUACGCCGUUCGGAUCUGCACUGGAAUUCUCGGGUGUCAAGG | 0.0745 |
| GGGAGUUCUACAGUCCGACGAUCCACAGACAACACGCACCCACACAGACACAGAAAGAAGGGGUUGGGAUGGGGACAGGGUGCACAGCAGGGCGGGGUAGGACCCCAGCCCCUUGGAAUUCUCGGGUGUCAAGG | -0.207 |
| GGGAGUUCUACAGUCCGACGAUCAGUCCUGUGCUACACAUCGUAUGUACCGAAUCGGGGUUUUUUUGGGGUGGGGAGGGGAAAGUAUUAUGUUACGCCGUUCGGAUCUGCACUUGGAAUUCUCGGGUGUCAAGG | 0.738 |
| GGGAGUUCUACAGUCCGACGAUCUCAAGUCCUGUGCUACACAUCGUAUGUACCGAAUCGGGGUUGGGUUGGGUUGGGAAAGUAUUAUGUUACGCCGUUCGGAUCUGCACUUCCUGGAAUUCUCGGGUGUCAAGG | 0.591 |

Sample 4 — method: RNA Bind-n-Seq; molecule type: RNA; medium: in vitro; concentration: 20 nM; setting: 6-mer, flanks averaged, single round; added: 150 mM KCl; reference: input library; direction: higher = stronger binding
Target: TAR DNA-binding protein 43, full length, His tag (TARDBP, Homo sapiens, UniProt Q13148, residues 1-414)
| Oligonucleotide | 6-mer enrichment (R) |
| --- | --- |
| AGACAU | 0.639 |
| GUCAGU | 0.839 |
| UUGGGG | 3.44 |
| GAGGAA | 1.65 |
| GCCACU | 0.701 |
| GUGCGC | 1.46 |
| AAAAGC | 0.629 |
| UUCGCG | 0.811 |
| AAAAGA | 0.67 |
| UGCUCC | 0.625 |
| GGGAUC | 1.79 |
| AUGAUA | 0.69 |
| GUACAU | 0.655 |
| CGCUAA | 0.64 |
| CUCGCC | 0.601 |
| UAAAUU | 0.623 |
| GGCUGA | 1.55 |
| GGACAU | 0.998 |
| AAAGAC | 0.61 |
| CGGCGA | 1.45 |
| UCAAAC | 0.585 |
| CCGGAU | 0.767 |

Sample 5 — method: DHFR PCA, deep sequencing; medium: yeast; added: (+)-ABA 17 µM; reference: wild-type fitted maximum; direction: higher = stronger binding
Target: ABI1, truncated, D143A, DHFR fusion (Arabidopsis thaliana)
Setting: methotrexate growth selection, single substitutions
Parent: PYL1, truncated, DHFR fusion (Arabidopsis thaliana); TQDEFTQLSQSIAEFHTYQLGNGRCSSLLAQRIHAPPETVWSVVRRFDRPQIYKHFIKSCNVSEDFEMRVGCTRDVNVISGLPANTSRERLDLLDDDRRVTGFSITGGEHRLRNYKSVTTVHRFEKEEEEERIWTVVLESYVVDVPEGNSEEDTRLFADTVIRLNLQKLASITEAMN
| Change | relative binding score [%] |
| --- | --- |
| D95V | 12.2 |
| V137I | 62.7 |
| P83Y | -10.4 |
| G148C | 36.8 |
| H34V | 66.6 |
| D75R | 75.9 |
| S27K | 12.5 |
| S59G | 68.4 |
| K126Q | 90.3 |
| V70F | 2.73 |
| L156H | 72.7 |
| I162S | 0.75 |
| C25D | -6.75 |
| S117I | -7.16 |
| V70D | 23.5 |
| L93I | 106 |
| S11Y | 81.4 |

Repeated from above (sample 4):
| Oligonucleotide | 6-mer enrichment (R) |
| --- | --- |
| UCAAAC | 0.585 |
| AAAAGA | 0.67 |
| UUCGCG | 0.811 |
| CGGCGA | 1.45 |
| GUGCGC | 1.46 |
| AAAGAC | 0.61 |
| CUCGCC | 0.601 |
| GGGAUC | 1.79 |
